Measurements pooled from the literature.
Every numbered part comes from another study and shows a few of its results, in no order.

Series 1
Target: Sal-like protein 4, full length isoform A (SALL4, Homo sapiens, UniProt Q9UJQ4, residues 1-1053)
Chain of UniProt Q9UJQ4 (whole entry, looked up): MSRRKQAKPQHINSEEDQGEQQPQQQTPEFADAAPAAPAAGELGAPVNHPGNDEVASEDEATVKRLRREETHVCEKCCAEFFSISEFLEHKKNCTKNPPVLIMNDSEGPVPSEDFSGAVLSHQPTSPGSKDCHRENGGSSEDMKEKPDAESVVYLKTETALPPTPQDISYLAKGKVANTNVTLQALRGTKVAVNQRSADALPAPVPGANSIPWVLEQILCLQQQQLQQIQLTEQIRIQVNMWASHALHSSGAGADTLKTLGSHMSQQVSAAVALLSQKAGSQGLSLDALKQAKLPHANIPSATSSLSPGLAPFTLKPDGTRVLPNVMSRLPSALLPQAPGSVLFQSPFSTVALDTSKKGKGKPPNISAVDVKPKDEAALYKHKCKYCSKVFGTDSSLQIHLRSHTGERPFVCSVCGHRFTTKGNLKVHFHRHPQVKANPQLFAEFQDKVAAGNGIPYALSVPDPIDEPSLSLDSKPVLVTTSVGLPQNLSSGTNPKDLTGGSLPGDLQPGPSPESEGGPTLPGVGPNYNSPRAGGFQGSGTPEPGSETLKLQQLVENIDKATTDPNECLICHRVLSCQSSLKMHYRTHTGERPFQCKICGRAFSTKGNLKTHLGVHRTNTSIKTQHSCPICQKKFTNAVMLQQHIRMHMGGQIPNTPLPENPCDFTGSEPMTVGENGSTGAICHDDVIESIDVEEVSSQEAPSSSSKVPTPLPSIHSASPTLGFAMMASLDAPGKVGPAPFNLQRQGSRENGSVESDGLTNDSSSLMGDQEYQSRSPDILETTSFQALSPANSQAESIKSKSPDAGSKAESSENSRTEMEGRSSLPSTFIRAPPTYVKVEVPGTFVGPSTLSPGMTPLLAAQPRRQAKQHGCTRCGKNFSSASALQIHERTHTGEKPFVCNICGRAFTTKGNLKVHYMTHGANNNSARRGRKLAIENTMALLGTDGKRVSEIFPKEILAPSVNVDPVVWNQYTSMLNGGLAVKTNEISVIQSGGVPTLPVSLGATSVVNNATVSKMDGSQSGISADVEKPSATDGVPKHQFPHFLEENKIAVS
Method: universal PBM
Molecule type: double-stranded DNA, one strand shown
Matrix: in vitro
Tested at: 600 nM
Notes: 8-mer, flanks averaged, mean of replicates
Direction: higher = stronger binding
With `GTCGCAGA` the E-score was -0.131.
For `AAGAAGAT`, the E-score was 0.193.
The E-score of `GCGTCCTA` is reported as -0.307.
With `CCACGGTA` the E-score was -0.129.
`CCCCCCCC` has an E-score of -0.375.
The E-score of `ACCACTCG` is reported as -0.172.
With `AGAAGCAG` the E-score was -0.00219.
With `CACGAAAC` the E-score was -0.0675.

Series 2
Target: Histone acetyltransferase KAT6A, both winged helices, GST fusion (KAT6A, Homo sapiens, UniProt Q92794, residues 1-181)
Method: protein binding microarray
Molecule type: double-stranded DNA, one strand shown
Matrix: in vitro
Tested at: not given
Notes: 8-mer, flanks averaged, mean of 2 arrays, mostly near background
Baseline: not given
Direction: higher = stronger binding
Construct (chain): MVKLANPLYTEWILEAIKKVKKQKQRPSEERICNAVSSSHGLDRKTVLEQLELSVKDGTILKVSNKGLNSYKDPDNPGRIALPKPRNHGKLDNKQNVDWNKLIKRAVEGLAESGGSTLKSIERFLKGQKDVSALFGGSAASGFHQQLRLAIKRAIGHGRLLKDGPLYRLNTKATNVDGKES
For `CCGCTGGC`, the E-score was 0.188.
With `ACGCAGAT` the E-score was 0.146.
`ATTCTGCA` has an E-score of -0.11.
`CCATGCCC` gave an E-score of -0.181.
For `ACGCTGCT`, the E-score was 0.0101.
`AAGTGTCA` has an E-score of -0.178.
`ACTTGATG` has an E-score of -0.00588.

Series 3
Target: Interferon regulatory factor 7, full length, phosphomimetic (IRF7, Homo sapiens, UniProt Q92985, residues 1-503, S101K/S471D/S472D/S475D/S476D/S477D/S483D/S484D/S487D)
Method: protein-binding microarray
Molecule type: double-stranded DNA, one strand shown
Matrix: in vitro
Tested at: 250 nM
Notes: 60-bp whole probe
Together with: salmon DNA 0.4 mg/ml
Baseline: random background probes
Direction: higher = stronger binding
Shared flanks, not repeated: GCCTAGCAC … GTCTTGATTCGCTTGACGCTGCTG
Target sequence (chain): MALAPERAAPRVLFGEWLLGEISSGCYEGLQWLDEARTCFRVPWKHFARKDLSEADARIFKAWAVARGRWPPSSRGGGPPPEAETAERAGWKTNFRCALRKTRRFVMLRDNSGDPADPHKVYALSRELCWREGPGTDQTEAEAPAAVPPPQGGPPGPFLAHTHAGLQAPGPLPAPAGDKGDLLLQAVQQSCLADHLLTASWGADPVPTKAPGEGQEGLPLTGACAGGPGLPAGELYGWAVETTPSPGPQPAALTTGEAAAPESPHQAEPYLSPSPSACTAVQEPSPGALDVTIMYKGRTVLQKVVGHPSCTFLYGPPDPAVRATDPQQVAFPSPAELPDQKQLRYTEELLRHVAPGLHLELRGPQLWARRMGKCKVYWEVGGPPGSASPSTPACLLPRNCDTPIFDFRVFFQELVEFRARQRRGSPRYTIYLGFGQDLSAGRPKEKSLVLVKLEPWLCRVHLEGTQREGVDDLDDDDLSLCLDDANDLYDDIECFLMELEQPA
For `GTAGATGCCTTTCTCTTGGAGTGCTAG`, the log fluorescence was -0.294 z-score.
`GACGGTTTCGCCACTGGGGACGTGCTA` has a log fluorescence of 1.47 z-score.
With `ATGGCTTTGCAGATAAATATGTGCTAG` the log fluorescence was -0.423 z-score.
With `TTAGGTTTCCTACTGCTATAGTGCTAG` the log fluorescence was 1.19 z-score.
The log fluorescence of `GACGGACTGCTTCTCGTGACGTGCTAG` is reported as -0.0655 z-score.
With `GACGGTCACCTTTTCCTGACGTGCTAG` the log fluorescence was 0.538 z-score.
The log fluorescence of `TTAGGACTGCTTATCCTTTTGTGCTAG` is reported as 0.202 z-score.
For `TAAGGTATCGACACTGGGTTAGTGCTA`, the log fluorescence was -0.113 z-score.

Further values, each from its own experiment
With `PhoQ, residues 284 288 289 292 302 303 SLANIV` the fold induction was 17.5 (PhoP, residues 12 14 15 18 19 GHCSL (Escherichia coli, UniProt P23836); Sort-seq, item: YFP reporter; E. coli; PhoQ-PhoP variant library, together with: 10 µM Mg2+; baseline: high Mg2+ state, higher = stronger signaling).

Some of these lines once more (series 1):
`CCCCCCCC` has an E-score of -0.375.
With `GTCGCAGA` the E-score was -0.131.
